Experimental data from different studies.

Structure (SMILES) | organism | test | system | conditions | MIC
CC[C@H](C)[C@H](N)C(=O)N[C@@H](CCCNC(=N)N)C(=O)N[C@H](C(=O)N[C@@H](Cc1c[nH]c2ccccc12)C(=O)N[C@@H](CCCCN)C(=O)N[C@@H](CCCCN)C(=O)N[C@H](C(=O)N[C@H](C(=O)N[C@@H](CCCNC(=N)N)C(=O)N[C@@H](CCCCN)C(=O)N[C@@H](Cc1c[nH]c2ccccc12)C(=O)N[C@@H](CCCCN)C(=O)N[C@@H](C)C(=O)N[C@H](C(=O)N[C@@H](Cc1c[nH]c2ccccc12)C(=O)N[C@@H](Cc1c[nH]cn1)C(N)=O)[C@@H](C)CC)C(C)C)[C@@H](C)CC)C(C)C | Salmonella typhimurium | broth dilution | SL1344 | – | 25 µM
CC[C@H](C)[C@@H]1NC(=O)[C@H](CCCNC(=N)N)NC(=O)[C@H]([C@@H](C)O)NC(=O)[C@H](C(C)C)NC(=O)[C@H](Cc2ccccc2)NC(=O)[C@H](C(C)C)NC(=O)[C@H](CCCNC(=N)N)NC(=O)[C@H](CCCNC(=N)N)NC(=O)[C@H](CCCNC(=N)N)NC(=O)[C@H](Cc2ccccc2)NC(=O)CNC(=O)[C@H](CCCCN)NC(=O)[C@@H](NC(=O)[C@H](CCCNC(=N)N)NC(=O)CNC(=O)CN)CSSC[C@@H](C(N)=O)NC1=O | Botrytis cinerea | resazurin | synthetic fungal medium | added: CaCl2 2 mM | > 6 µM
CC[C@H](C)[C@H](NC(=O)[C@H](CCCNC(=N)N)NC(=O)[C@H](CO)NC(=O)[C@H](Cc1ccc(O)cc1)NC(=O)[C@@H](NC(=O)[C@@H](NC(=O)[C@H](C)NC(=O)CNC(=O)[C@H](CCCCN)NC(=O)[C@H](CCCCN)NC(=O)CCNC(=O)CCCCCNC(=O)[C@H](CCCNC(=N)N)NC(=O)CCCCCNC(=O)[C@H](CCCNC(=N)N)NC(=O)[C@H](CCCNC(=N)N)NC(=O)CCCCCNC(=O)[C@H](CCCNC(=N)N)NC(=O)[C@H](CCCNC(=N)N)NC(=O)CCCCCNC(=O)[C@H](CCCNC(=N)N)NC(=O)[C@H](CCCNC(=N)N)NC(=O)CCCCCNC(=O)[C@@H](N)CCCNC(=N)N)C(C)C)[C@@H](C)O)C(=O)N[C@@H](CO)C(=O)NCC(=O)N[C@@H](CCC(N)=O)C(=O)N[C@@H](Cc1ccc(O)cc1)C(=O)N[C@@H](CCCCN)C(=O)O | Escherichia coli | – | ATCC 25922, Mueller-Hinton broth | added: FeCl3 4 µM | 6 µM
CC[C@H](C)C[C@H](C)CCCCCCCCC(=O)N[C@H]1C[C@@H](O)[C@@H](NCCN)NC(=O)[C@@H]2[C@@H](O)CCN2C(=O)[C@H]([C@H](O)CCN)NC(=O)[C@H]([C@H](O)[C@@H](O)c2ccc(O)cc2)NC(=O)[C@@H]2C[C@@H](O)CN2C(=O)[C@H]([C@@H](C)O)NC1=O | Saccharomyces cerevisiae | – | S288c wild type | – | 0.008 µg/mL
OB(O)c1ccc(OCc2ccccc2)nc1F | Citrobacter freundii | bacterial growth | AmpC overproducer clinical isolate | without cefotaxime | > 2050 µg/mL
O=c1n(CCNCCOS(=O)(=O)c2ccccc2)c(=O)n(S(=O)(=O)c2ccccc2)c(=O)n1S(=O)(=O)c1ccccc1 | Proteus mirabilis | microbial growth, broth dilution | – | – | 4 µg/mL
c1ccc(CCNC2CCCc3c2[nH]c2ccc(C4CCCCC4)cc32)cc1 (stereo not shown) | Streptococcus pneumoniae | broth microdilution | serotype 19A 700678, supplemented C+Y medium | – | 1.3 µg/mL
COc1ccc(C2=[N+]([O-])c3ccccc3N3CCN=C23)cc1 | Clostridioides difficile | – | – | – | 0.125 to 1 µg/mL
CC[C@H](C)[C@H](N)C(=O)N[C@@H](CCCNC(=N)N)C(=O)N[C@H](C(=O)N[C@@H](Cc1c[nH]c2ccccc12)C(=O)N[C@@H](Cc1ccccc1)C(=O)N[C@H](C(=O)N[C@@H](CCCCN)C(=O)N[C@H](C(=O)N[C@@H](CCCNC(=N)N)C(=O)N[C@@H](CCCCN)C(=O)N[C@@H](CCSC)C(=O)N[C@@H](CCCCN)C(=O)N[C@@H](C)C(=O)N[C@H](C(=O)N[C@@H](Cc1ccc(O)cc1)C(=O)N[C@@H](Cc1c[nH]cn1)C(N)=O)[C@@H](C)CC)C(C)C)[C@@H](C)CC)C(C)C | Salmonella typhimurium | broth dilution | SL1344 | – | 100 µM
CCCCCCCCCC(=O)NCCCC[C@H](NC(=O)CCCCCCCCC)C(=O)N[C@@H](CCCCNC(=O)CCCCCCCCC)C(=O)NCC(=O)NCC(=O)NCC(=O)N[C@@H](CS)C(=O)N[C@@H](CCCNC(=N)N)C(=O)N[C@@H](CCCCN)C(=O)N1CCC[C@H]1C(=O)N[C@@H](CS)C(=O)N[C@@H](CCCNC(=N)N)C(=O)N[C@@H](CCCCN)C(=O)N1CCC[C@H]1C(N)=O | Candida tropicalis | broth microdilution | CGMCC 2.197, RPMI-1640 | 48 h, 30 °C | 16 µM
CC[C@H](C)[C@@H]1NC(=O)[C@H](CO)NC(=O)C(C)(CCCCN)NC(=O)[C@@H]2CSSC[C@@H](C(=O)N[C@@H](Cc3ccc(O)cc3)C(N)=O)NC(=O)[C@H](CCCCN)NC(=O)[C@@H]3CSSC[C@H](NC(=O)[C@H](CCCNC(=N)N)NC(=O)C(C)(CC(C)C)NC(=O)[C@H](CC(=O)O)NC(=O)[C@H](CC(=O)O)NC(=O)[C@H](CCC(=O)O)NC(=O)[C@H](CC(N)=O)NC(=O)[C@H](Cc4c[nH]c5ccccc45)NC(=O)C(C)(CC)NC(=O)CNC(=O)[C@H](CC(N)=O)NC(=O)[C@@H](NC(=O)CNC(=O)[C@H](Cc4ccccc4)NC(=O)CN)CSSC[C@H](NC(=O)[C@H](Cc4ccc(O)cc4)NC(=O)CNC(=O)CNC(=O)[C@H](CCCCN)NC(=O)[C@H](Cc4ccc(O)cc4)NC(=O)[C@H]4CCCN4C(=O)[C@@H]4CCCN4C1=O)C(=O)N[C@@H](C)C(=O)N[C@@H](CCCCN)C(=O)N1CCC[C@@H]1C(=O)NCC(=O)N[C@@H](Cc1ccccc1)C(=O)N[C@@H](C(C)C)C(=O)N3)C(=O)N[C@@H](Cc1c[nH]cn1)C(=O)NC(C)(C)C(=O)N[C@@H](Cc1c[nH]cn1)C(=O)N2 (stereo partly shown) | Streptococcus pneumoniae | broth microdilution | 19F | 18 h | 1 µM
[O-][N+]1=C(c2ccc(Cl)cc2)C2=NCCCCN2c2ccccc21 | Clostridioides difficile | – | – | – | 0.25 to 4 µg/mL
CC[C@H](C)[C@H](NC(=O)[C@H](CCCCN)NC(=O)[C@H](CCCCN)NC(=O)[C@H](Cc1ccccc1)NC(=O)[C@H](Cc1ccccc1)NC(=O)[C@H](CCCCN)NC(=O)[C@H](CCCCN)NC(=O)[C@H](Cc1ccccc1)NC(=O)[C@H](CCCNC(=N)N)NC(=O)[C@@H](N)CCCCN)C(=O)N[C@@H](CCCCN)C(=O)N[C@@H](CCCCN)C(=O)N[C@@H](CO)C(=O)N[C@H](C(=O)N[C@@H](CCCCN)C(=O)N[C@@H](CCCCN)C(=O)N[C@@H](CCCNC(=N)N)C(=O)N[C@H](C(=O)N[C@@H](CCCCN)C(=O)N[C@@H](CCCCN)C(=O)N[C@@H](CC(C)C)C(=O)N[C@@H](Cc1ccccc1)C(=O)N[C@@H](CCCCN)C(=O)N[C@@H](CCCCN)C(=O)N1CCC[C@H]1C(=O)N[C@@H](CCCNC(=N)N)C(=O)N[C@H](C(=O)N[C@H](C(=O)N1CCC[C@H]1C(=O)N[C@H](C(=O)N[C@@H](CO)C(=O)N[C@H](C(=O)N1CCC[C@H]1C(=O)N[C@@H](Cc1ccccc1)C(=O)O)[C@@H](C)CC)[C@@H](C)CC)[C@@H](C)CC)C(C)C)C(C)C)C(C)C | Escherichia coli | CLSI agar dilution | ATCC 25922 | 20 h, 37 °C | 8 µg/mL
